Measured values from different studies.
Lines come from different studies, so protocols differ. ± marks the error that the study gave. Converted amounts (≈) assume the structure as drawn.

`O=C1Nc2ccc(Cl)cc2[C@@](C#CC2CC2)(C(F)(F)F)O1` — result for “brain concentration decrease”: 86% (RT-SHIV infected rhesus macaques, brain; dose not given; reference: uninfected macaques).
`C=C1C[C@@H]2[C@H](CC[C@]3(C)C(=O)CC[C@@H]23)[C@@]2(C)C=CC(=O)C=C12`: “plasma concentration range” 2.5 to 72 ng/mL (LC-MS/MS; postmenopausal breast cancer women, plasma; oral, 25 mg/day steady state, 2 h post-dose, all patients, below LLOQ set to 2.5 ng/mL).
Under “photopic b-wave amplitude”, `CN(Cc1cnc2nc(N)nc(N)c2n1)c1ccc(C(=O)N[C@@H](CCC(=O)O)C(=O)O)cc1` is recorded as “increased” (Rho P23H/+ mouse; intravitreal, 100 pmol weekly for four doses, PND 44; reference: PBS).
`O=c1[nH]c(Cc2ccccn2)nc2c1cnn2C1CCOCC1` gave an AUC(0-inf) of 0.351 µM·h (healthy men, extensive metabolizers, plasma; oral, 25 mg single dose, tablet, geometric mean).
For `CNC(C)Cc1ccc2c(c1)OCO2` (racemic), “subjective drug effect rating” read 41.5 (Drug Effects Questionnaire, measured: Want More; human; oral, 1.5 mg/kg, mean over session, unit not given; reference: pre-dose baseline).
`O[C@H]1CCCN[C@@H]1CCCn1cnc2c(Cl)c(Cl)ccc21`: “Tmax at steady state” 3 h (healthy human volunteers, plasma; oral, 50 mg twice daily, day 14, median).
`CC[C@H](C)[C@H](NC(=O)[C@@H](N)CCCNC(=N)N)C(=O)N[C@H](C(=O)N1CCC[C@H]1C(=O)N[C@@H](C)C(N)=O)C(C)C` has a Cmax of 14400 ng/mL (human, plasma; intravenous, 3 mg/kg, single dose, healthy volunteers).
`COc1ccsc1CNCC[C@@]1(c2ccccn2)CCOC2(CCCC2)C1` has a half-life of 2.1 ± 0.23 h (healthy human, normal hepatic function, plasma; intravenous, 1 mg single dose, arithmetic mean).
`CCCCCCCCCN(C)C` — result for “in vivo intrinsic clearance”: 187 mL/h/g liver (liver S9 substrate depletion; rainbow trout liver S9; six-surfactant mixture).
The plasma concentration of `C[C@H]1CNCCc2ccc(Cl)cc21` is reported as 5.97 ± 0.28 ng/mL (Sprague-Dawley rat, male, plasma; subcutaneous, 3 mg/kg, 360 min).
With `[123I]c1cncc(OC[C@@H]2CCN2)c1` the tissue/plasma ratio was 31.1 (SPECT; human, cerebellum; intravenous bolus, 7.35 mCi; reference: tissue over plasma).
`Cc1ccc(OS(=O)(=O)O)cc1`: “unbound fraction in plasma” 2 ± 1% (untargeted mass spectrometry; human normal subjects, plasma ultrafiltrate).
For `CCc1cccc(CC)c1N(COC)C(=O)CCl`, the remaining amount was 4.83 ± 0.15% (LC-MS/MS; herbicide solution; 2 h, 4 °C, together with: 365 nm UV exposure).
`CC[C@H](C)[C@H](NC(=O)[C@H](CO)NC(=O)[C@H](C)NC(=O)[C@@H](NC(=O)CNC(=O)[C@H](CO)NC(=O)[C@@H](NC(=O)[C@@H](NC(=O)[C@H](Cc1c[nH]cn1)NC(=O)[C@@H]1CCCN1C(=O)[C@@H](NC(=O)[C@H](CC(C)C)NC(=O)[C@H](CO)NC(=O)[C@H](CC(C)C)NC(=O)[C@@H](N)Cc1ccccc1)[C@@H](C)CC)[C@@H](C)CC)C(C)C)C(C)C)C(=O)N[C@@H](C)C(=O)N[C@@H](CCCCN)C(=O)N[C@@H](Cc1c[nH]cn1)C(=O)N[C@@H](Cc1ccccc1)C(N)=O` gave a concentration found of 180 ng/mL (UPLC-MS/MS; rat plasma; 0.2 µg/mL, 10 days, -20 °C, long-term stability).
`CC(C)c1ccc2c(c1)CC[C@H]1[C@](C)(CN)CCC[C@]21C` has an IC50 of 2990 nM (WM35; cell growth or viability, MTS; 72 h).
`CCCCCCCCCCCCCCCC[N+](C)(C)CCCCCCCCCCCCCCCC`: “unbound fraction in blood” 0.066 (ultrafiltration; human serum).
With `c1ccc(CCN2CCCCC2)cc1` the Ki was > 10000 nM (opioid receptors, rat; binding; rat forebrain; together with: [3H]naloxone 1 nM).
`CC(C)C(=O)OC[C@H]1O[C@@H](n2ccc(NO)nc2=O)[C@H](O)[C@@H]1O` gave a remaining compound of 104 ± 1.35% (rat brain dialysate; 250 ng/mL, time not given, three freeze-thaw cycles, together with: NHC 1000 ng/mL).
`CC[C@H](C)[C@H](NC(=O)[C@H](CC(C)C)NC(=O)[C@H](Cc1c[nH]c2ccccc12)NC(=O)[C@H](CCC(N)=O)NC(=O)[C@@H](NC(=O)[C@H](Cc1ccccc1)NC(=O)[C@H](C)NC(=O)[C@H](CCCCNC(=O)COCCOCCNC(=O)COCCOCCNC(=O)CC[C@H](NC(=O)CCCCCCCCCCCCCCCCCCC(=O)O)C(=O)O)NC(=O)[C@H](CCC(N)=O)NC(=O)[C@H](C)NC(=O)[C@@H](NC(=O)[C@H](CCCCN)NC(=O)[C@H](CC(=O)O)NC(=O)[C@H](CC(C)C)NC(=O)C(C)(C)NC(=O)[C@@H](NC(=O)[C@H](CO)NC(=O)[C@H](Cc1ccc(O)cc1)NC(=O)[C@H](CC(=O)O)NC(=O)[C@H](CO)NC(=O)[C@@H](NC(=O)[C@H](Cc1ccccc1)NC(=O)[C@@H](NC(=O)CNC(=O)[C@H](CCC(=O)O)NC(=O)C(C)(C)NC(=O)[C@@H](N)Cc1ccc(O)cc1)[C@@H](C)O)[C@@H](C)O)[C@@H](C)CC)[C@@H](C)CC)C(C)C)C(=O)N[C@@H](C)C(=O)NCC(=O)NCC(=O)N1CCC[C@H]1C(=O)N[C@@H](CO)C(=O)N[C@@H](CO)C(=O)NCC(=O)N[C@@H](C)C(=O)N1CCC[C@H]1C(=O)N1CCC[C@H]1C(=O)N1CCC[C@H]1C(=O)N[C@@H](CO)C(N)=O` gave a CL/F of 0.802 mL/min (human, moderate renal impairment, plasma; subcutaneous, 5 mg single dose, geometric mean).
With `N=C(N)NCCC[C@@H]1NC(=O)[C@H](CCCCNC(=O)CNC(=O)CNC(=O)CNC(=O)CC[C@H](NC(=O)CCOCCOCCOCCOCCNC(=O)c2ccc(NN)nc2)C(=O)NCC(=O)NCC(=O)NCC(=O)NCCCC[C@@H]2NC(=O)[C@@H](Cc3ccccc3)NC(=O)[C@H](CC(=O)O)NC(=O)CNC(=O)[C@H](CCCNC(=N)N)NC2=O)NC(=O)[C@@H](Cc2ccccc2)NC(=O)[C@H](CC(=O)O)NC(=O)CNC1=O` [technetium-99m labelled] the tissue uptake was 12.3 ± 0.86 %ID/g (γ-counting; female athymic nude mice, U-87 MG xenograft, kidneys; intravenous, 0.5 h).
`CC(=O)N[C@H](CCCCNC(=O)C(C)F)C(=O)N[C@@H](CS)C(=O)N[C@@H](CS)C(=O)N[C@@H](CCC(=O)O)C(=O)N[C@@H](Cc1c[nH]cn1)C(=O)N[C@H](Cc1ccccc1)C(=O)N[C@@H](CCCNC(=N)N)C(=O)N[C@@H](Cc1c[nH]c2ccccc12)C(=O)N[C@@H](CS)C(=O)N[C@@H](CCCNC(=N)N)C(=O)N1CCC[C@H]1C(=O)N[C@H](C(N)=O)C(C)C` (stereo partly drawn) [fluorine-18 labelled] gave a tissue uptake of 1.72 ± 0.16 %ID/g (C57BL/6 mice, male, B16-F10 tumour, lung; intravenous, 1 h).
`O=C(c1ccc(F)c(F)c1Nc1ccc(I)cc1F)N1CC(O)([C@@H]2CCCCN2)C1`: “treatment-related adverse events” 6% (measured: retinal detachment; human patients; oral, dose not given, dose escalation, tablet, grade G2).
`CCCCCOc1ccc(-c2cc(-c3ccc(C(=O)N[C@H]4C[C@@H](O)[C@@H](O)NC(=O)[C@@H]5[C@@H](O)[C@@H](C)CN5C(=O)[C@H]([C@H](O)CC(N)=O)NC(=O)[C@H]([C@H](O)[C@@H](O)c5ccc(O)c(OS(=O)(=O)O)c5)NC(=O)[C@@H]5C[C@@H](O)CN5C(=O)[C@H]([C@@H](C)O)NC4=O)cc3)no2)cc1` — result for “clearance at steady state”: 0.283 mL/min/kg (human children aged 6-11 years, plasma; intravenous, 4.5 mg/kg once daily, day 7, median).
`Oc1cc(Cl)c(Cl)c(-c2cc(Cl)c(Cl)cc2Cl)c1Cl` has an enantiomeric fraction of 0.65 (enantioselective GC, measured: hydroxylated metabolite; phenobarbital-treated rat, rat liver microsomes; 50 µM, 30 min).
`CC(C)[C@H](C(=O)O)N(Cc1ccc(-c2ccccc2-c2nn[nH]n2)cc1)N=O` — result for mutagenicity: “negative” (Salmonella typhimurium, Escherichia coli; preincubation Ames test; concentration not given, with and without S9).
For `Cc1ncc2n1-c1ccc(Cl)cc1C(c1ccccc1F)=NC2`, “Cmax geometric mean” read 34.5 ng/mL (healthy men, plasma; oral, 7.5 mg, without amenamevir).
`CP(=O)(O)CCC(N)C(=O)O` (stereo not drawn) gave a herbicidal activity of 20% (Lolium perenne; 60 g/ha, 13 days, LOLPE, post-emergence spray; reference: untreated (0%), complete kill (100%)).
The relative error of `CC1(C)S[C@@H]2[C@H](NC(=O)[C@@H](C(=O)O)c3ccsc3)C(=O)N2[C@H]1C(=O)O` is reported as 5% (rat plasma; 30 ng/mL, three freeze-thaw cycles; reference: nominal concentration).
`CN[C@@](C)(C[18F])C(=O)O` has a tissue uptake of 0.3 ± 0.04 %ID/g (SCID mouse MDA-MB-468 xenograft, brain; 30 min, post injection).
With `CSCC[C@@H]1NC(=O)[C@H](CC(=O)O)NC(=O)CNC(=O)[C@H](CCCNC(=N)N)NC(=O)[C@H](C)NC(=O)[C@H](CCC(=O)O)NC(=O)[C@H](CCCNC(=N)N)NC(=O)[C@@H]2CSSC[C@@H]3NC(=O)[C@H](CO)NC(=O)[C@H]([C@@H](C)O)NC(=O)[C@@H]4CCCN4C(=O)[C@H](C)NC(=O)[C@H](Cc4c[nH]c5ccccc45)NC(=O)[C@H](CC(=O)O)NC(=O)CNC(=O)[C@H](CCCNC(=N)N)NC(=O)CNC(=O)[C@H](CCC(N)=O)NC(=O)[C@@H]4CCCN4C(=O)[C@@H](NC(=O)CNC(=O)C(C)F)CSSC[C@H](NC(=O)CNC(=O)[C@H](C)NC(=O)[C@H](CC(C)C)NC(=O)[C@H](CSSC[C@@H](C(=O)NCC(N)=O)NC(=O)[C@H]([C@@H](C)O)NC(=O)[C@H](CCCNC(=N)N)NC(=O)[C@@H]4CCCN4C1=O)NC(=O)[C@H](CC(=O)O)NC(=O)[C@H](CO)NC(=O)[C@H](CC(=O)O)NC(=O)[C@H](CCC(N)=O)NC(=O)[C@H](CO)NC3=O)C(=O)N[C@@H](C(C)C)C(=O)N2` (stereo partly drawn) [fluorine-18 labelled] the tissue uptake was 0.29 ± 0.1 %ID/g (nude mice U-87 MG xenograft, liver; intravenous, 2.5 h).
The tissue uptake of `N=C(N)NCCC[C@@H]1NC(=O)[C@H](CCCCNC(=O)[C@H](CC(=O)O)NC(=O)[C@H](CC(=O)O)NC(=O)[C@H](CC(=O)O)NC(=O)CC[C@H](NC(=O)CCOCCOCCOCCOCCNC(=O)c2ccc(NN)nc2)C(=O)N[C@@H](CC(=O)O)C(=O)N[C@@H](CC(=O)O)C(=O)N[C@@H](CC(=O)O)C(=O)NCCCC[C@@H]2NC(=O)[C@@H](Cc3ccccc3)NC(=O)[C@H](CC(=O)O)NC(=O)CNC(=O)[C@H](CCCNC(=N)N)NC2=O)NC(=O)[C@@H](Cc2ccccc2)NC(=O)[C@H](CC(=O)O)NC(=O)CNC1=O` [technetium-99m labelled] is reported as 19.9 ± 0.28 %ID/g (γ-counting; female athymic nude mice, U-87 MG xenograft, kidneys; intravenous, 1 h).
`c1cc2ccc3cccc4ccc(c1)c2c34` has a tissue concentration of 13.8 ± 2.1 ng/g (HPLC-fluorescence; Wistar rat, male, kidney; oral, 4 mg/kg, 24 h).
`NC(=O)c1nc(F)c[nH]c1=O` has a solubility of 882 µg/mL (≈ 5.61 mM) (UV-Vis spectrophotometry; supercritical CO2; 120 min, 328 K, 21 MPa, 768.74 kg/m^3).

For quick reference, copied from above:
With `[123I]c1cncc(OC[C@@H]2CCN2)c1` the tissue/plasma ratio was 31.1 (SPECT; human, cerebellum; intravenous bolus, 7.35 mCi; reference: tissue over plasma).
`Cc1ccc(OS(=O)(=O)O)cc1`: “unbound fraction in plasma” 2 ± 1% (untargeted mass spectrometry; human normal subjects, plasma ultrafiltrate).
For `CCc1cccc(CC)c1N(COC)C(=O)CCl`, the remaining amount was 4.83 ± 0.15% (LC-MS/MS; herbicide solution; 2 h, 4 °C, together with: 365 nm UV exposure).
`CC[C@H](C)[C@H](NC(=O)[C@H](CO)NC(=O)[C@H](C)NC(=O)[C@@H](NC(=O)CNC(=O)[C@H](CO)NC(=O)[C@@H](NC(=O)[C@@H](NC(=O)[C@H](Cc1c[nH]cn1)NC(=O)[C@@H]1CCCN1C(=O)[C@@H](NC(=O)[C@H](CC(C)C)NC(=O)[C@H](CO)NC(=O)[C@H](CC(C)C)NC(=O)[C@@H](N)Cc1ccccc1)[C@@H](C)CC)[C@@H](C)CC)C(C)C)C(C)C)C(=O)N[C@@H](C)C(=O)N[C@@H](CCCCN)C(=O)N[C@@H](Cc1c[nH]cn1)C(=O)N[C@@H](Cc1ccccc1)C(N)=O` gave a concentration found of 180 ng/mL (UPLC-MS/MS; rat plasma; 0.2 µg/mL, 10 days, -20 °C, long-term stability).
`CC(C)c1ccc2c(c1)CC[C@H]1[C@](C)(CN)CCC[C@]21C` has an IC50 of 2990 nM (WM35; cell growth or viability, MTS; 72 h).
